Assay results from different studies.
Lines come from different studies, so protocols differ. Several values in a cell are separate wells, animals, samples, runs or records. Numbers after ± are the reported error.

CC(=O)NCC(=O)N[C@@H](CCCNC(=N)N)C(=O)N[C@@H](CCCCN)C(=O)N[C@@H](CCCCN)C(=O)N[C@@H](CCCNC(=N)N)C(=O)N[C@@H](CCCNC(=N)N)C(=O)N[C@@H](CCC(N)=O)C(=O)N[C@@H](CCCNC(=N)N)C(=O)N[C@@H](CCCNC(=N)N)C(=O)N[C@@H](CCCNC(=N)N)C(=O)N1CCC[C@H]1C(=O)N[C@@H](CCC(N)=O)C(N)=O  concentration (HEK-293T; subcellular fractionation LC-MS; nuclear fraction; 20 µM, 24 h): 8.2 nM and 12.6 nM and 11 nM
CN(C)CCCNC(=O)[C@@H]1NC(=O)[C@@H]2Cc3ccc(cc3)Oc3cc4cc(c3O)-c3ccc5c(c[nH]c5c3)C[C@@H](NC(=O)C(NC(=O)CCCCCN)c3ccc(O)cc3)C(=O)N[C@H](c3ccc(O)cc3)C(=O)N[C@H]4C(=O)N[C@@H](C(=O)N2C)c2ccc(cc2)Oc2cc1ccc2O (stereo partly drawn)  hemolysis (human red blood cells; 64 µg/mL, 1 h, 37 °C, 1% DMSO): 0%
CC(=O)c1c(O)c(C)c(O)c2c1OC1=CC(=O)C(=C(C)NNc3ccnc4cc(Cl)ccc34)C(=O)C12C (stereo not drawn)  IC50 (L6 rat skeletal myoblasts; cytotoxicity, Alamar Blue): 9.75 µM
COc1cc2c3c(c1OC)-c1ccccc1C[C@H]3N(C)CC2  CC50 (hACE2-A549 cells; 96 h): 44 ± 3.25 µM
CC(C)C[C@H](NC(=O)[C@@H](NC(=O)[C@H](CCCCN)NC(=O)[C@H](CCCCN)NC(=O)[C@H](CC(C)C)NC(=O)[C@H](Cc1c[nH]c2ccccc12)NC(=O)[C@H](CCCCN)NC(=O)[C@H](Cc1c[nH]c2ccccc12)NC(=O)[C@H](CC(C)C)NC(=O)[C@H](CCCCN)NC(=O)[C@H](CCCCN)NC(=O)[C@@H](N)C(C)C)C(C)C)C(N)=O  minimum haemolytic concentration (sheep red blood cells; 10% haemolysis; 1 h, 37 °C): 89 µM
CC[C@H](C)[C@H](NC(=O)[C@H](C)NC(=O)[C@H](CCCCN)NC(=O)[C@H](CC(C)C)NC(=O)[C@@H](N)Cc1ccccc1)C(=O)N[C@@H](CCCCN)C(=O)N[C@@H](CCCCN)C(=O)N[C@@H](Cc1ccccc1)C(=O)NCC(=O)N[C@@H](CCCCN)C(=O)N[C@@H](CCC(=O)O)C(=O)N[C@@H](Cc1ccccc1)C(=O)N[C@@H](CCCCN)C(=O)N[C@@H](CCCCN)C(=O)N[C@H](C(=O)NCC(=O)N[C@@H](C)C(=O)N[C@@H](CCCCN)C(=O)N[C@@H](CC(C)C)C(=O)N[C@@H](CCCCN)C(=O)O)[C@@H](C)CC  viability (HeLa; cell growth or viability, MTT; 32 µg/mL): 94.9%
CC(C)[C@H](NC(=O)[C@H](Cc1ccc(O)cc1)NC(=O)[C@H](CS)NC(=O)[C@@H](NC(=O)[C@H](CCCNC(=N)N)NC(=O)[C@H](Cc1ccccc1)NC(=O)[C@H](CS)NC(=O)[C@H](Cc1c[nH]c2ccccc12)NC(=O)[C@@H](N)CCCNC(=N)N)C(C)C)C(=O)NCC(=O)N[C@@H](Cc1ccccc1)C(=O)N[C@@H](CS)C(=O)N[C@@H](Cc1ccc(O)cc1)C(=O)N[C@@H](Cc1c[nH]c2ccccc12)C(=O)N[C@@H](CCCCN)C(=O)N[C@@H](CS)C(=O)N[C@@H](CCCNC(=N)N)C(=O)O  HC50 (rat erythrocytes; haemolysis; 1 h, 37 °C, 2% erythrocytes in PBS): 3.23 log10 µg/mL
CCN(CCCCOc1ccc(CCC(=O)N2CCC(Cc3ccccc3)CC2)cc1OC)Cc1ccccc1  Papp(B-A) (Caco-2 monolayer; 40 µM, 120 min): 11.5 ± 2.72 ×10⁻⁶ cm/s
CNC(=O)C[C@H](Cc1ccncc1)NC(=O)[C@@H](Cc1cccc(Br)c1)NC(=O)[C@@H](N)Cc1ccsc1  viability (Huh-7-ACE2; CellTiter-Glo; 3.125 µM, 48 h, unit not given; reference: DMSO): 0.994 and 1.02 and 0.927
CC[C@H](C)[C@H](NC(=O)[C@H](Cc1c[nH]c2ccccc12)NC(=O)[C@H](Cc1ccc(O)cc1)NC(=O)[C@H](CCCCN)NC(=O)[C@H](CC(C)C)NC(=O)[C@@H](N)CO)C(=O)N[C@@H](CCCNC(=N)N)C(=O)N[C@@H](Cc1ccc(O)cc1)C(=O)N[C@@H](CCCCN)C(=O)N[C@@H](CCCNC(=N)N)C(=O)N[C@@H](CCC(N)=O)C(=O)NCC(=O)N[C@@H](C)C(=O)N[C@@H](C)C(=O)N[C@@H](CCCNC(=N)N)C(=O)N[C@@H](Cc1ccccc1)C(N)=O  hemolysis (rat erythrocytes; 200 µM, 60 min, 37 °C): 5.7 ± 1.4%
COc1cc(/C=C/C(=O)Oc2ccc(C(F)(F)F)c(C(F)(F)F)c2)ccc1O  subcytotoxic concentration (HaCaT; MTT; 24 h, 10% FBS): 5 µM
CCOc1ccc(CN2CC[C@H]2C(=O)NC)cc1-c1cccc(C(=O)NC[C@@H]2COC(C)(C)O2)c1  viability (Huh-7-ACE2; CellTiter-Glo; 0.0122 µM, 48 h, unit not given; reference: DMSO): 0.934 and 1.01 and 0.861
CC[C@H](C)[C@H](NC(=O)[C@H](C)NC(=O)[C@H](CCCCN)NC(=O)[C@H](CCCCN)NC(=O)[C@@H](N)CCCNC(=N)N)C(=O)N[C@@H](CCCCN)C(=O)N[C@@H](CC(C)C)C(=O)N[C@H](C(=O)N[C@@H](CCCCN)C(=O)N[C@@H](CCCCN)C(=O)N[C@@H](CC(C)C)C(=O)N[C@H](C(=O)N[C@@H](CCCCN)C(=O)N[C@@H](CCCCN)C(=O)N[C@@H](CC(C)C)C(=O)N[C@@H](CCCCN)C(=O)N[C@@H](CCCCN)C(=O)N[C@@H](C)C(=O)N[C@@H](CC(C)C)C(=O)N[C@@H](CCCCN)C(=O)O)C(C)C)C(C)C  viability (HeLa; cell growth or viability, MTT; 16 µg/mL): 78%
CC[C@H](C)[C@H](NC(=O)[C@@H](NC(=O)[C@H](CCCCN)NC(=O)[C@H](CCCCN)NC(=O)[C@@H](NC(=O)[C@H](Cc1c[nH]c2ccccc12)NC(=O)[C@H](CCCCN)NC(=O)[C@@H](NC(=O)[C@H](CC(C)C)NC(=O)[C@H](CCCCN)NC(=O)[C@H](CCCCN)NC(=O)[C@@H](N)C(C)C)[C@@H](C)CC)[C@@H](C)CC)C(C)C)C(N)=O  minimum haemolytic concentration (sheep red blood cells; 10% haemolysis; 1 h, 37 °C): 182 µM
COc1cc(/C=C/C(=O)Oc2cc(C(F)(F)F)ccc2C(F)(F)F)ccc1O  subcytotoxic concentration (HaCaT; MTT; 24 h, 10% FBS): 10 µM
